# Literature values that unrelated publications cite.
# Compare with care: the assays were run in different laboratories. Several values in a cell are separate wells, animals, samples, runs or records. Numbers after ± are the reported error.
# Organism: HIV-1
SMILES,assay,test system,setting,quantity,value
Cc1cc(/C=C/C#N)cc(C)c1Nc1ccnc(Nc2ccc(C#N)cc2)n1,viral replication,wild type,,EC50,0.51 nM
COC(=O)N[C@H](C(=O)N[C@@H](Cc1ccccc1)[C@@H](O)CN(Cc1ccc(-c2ccccn2)cc1)NC(=O)[C@@H](NC(=O)OC)C(C)(C)C)C(C)(C)C,viral replication,"wild type, human serum",,IC50,0.011 µg/mL and ~0.011 µg/mL
Cn1c(Cn2ccc(C(F)(F)F)c(Oc3cc(Cl)cc(C#N)c3)c2=O)n[nH]c1=O,"viral replication, single-round infection",wild type,,EC50,0.7 ± 0.1 nM
Nc1ccn([C@@H]2CS[C@H](CO)O2)c(=O)n1,,"X4 LAI.04, human tissue ex vivo",,EC50,16.6 nM
Cc1cc(/C=C/C#N)cc(C)c1Nc1ccnc(Nc2ccc(C#N)cc2)n1,viral replication,wild type,,EC50,0.51 nM
Cc1cc(/C=C/C#N)cc(C)c1Oc1cc(Nc2ccc(C#N)cc2)c(N)cc1[N+](=O)[O-],viral replication,"TZM-bl, NL4-3 wild type",,EC50,0.38 ± 0.07 nM
Cc1cc(/C=C/C#N)cc(C)c1Nc1ccnc(Nc2ccc(C#N)cc2)n1,"viral replication, single-round infection",wild type,,EC50,0.2 ± 0.1 nM
CN(C)c1ccc(Nc2c3ccc(NC(=O)CCN4CCCC4)cc3nc3cc(NC(=O)CCN4CCCC4)ccc23)cc1,viral replication,"TZM-bl, NL4-3",,IC50,3400 ± 140 nM
Cc1cc(C#N)cc(C)c1Oc1nc(Nc2ccc(C#N)cc2)nc(N)c1Br,viral replication,wild type,,EC50,1.4 nM
CN[C@@H]1[C@H](O[C@@H]2OC[C@@H](O)[C@H](O)[C@H]2O)[C@@H](O)[C@H](O[C@H]2c3cc(C)c(C(=O)N[C@H](C)C(=O)O)c(O)c3-c3c(cc4c(c3O)C(=O)c3cc(OC)cc(O)c3C4=O)[C@@H]2O)O[C@@H]1C,viral cytopathicity,MT4 and CEM,,EC50,≥ 4200 nM
Cn1c(Cn2ccc(C(F)(F)F)c(Oc3cc(Cl)cc(C#N)c3)c2=O)n[nH]c1=O,"viral replication, MTT","MT-4, IIIB wild type",,EC50,8.46 ± 3.64 nM
C=C(C)[C@@H]1CC[C@]2(NCCN3CCS(=O)(=O)CC3)CC[C@]3(C)[C@H](CC[C@@H]4[C@@]5(C)CC=C(c6ccc(C(=O)O)cc6)C(C)(C)[C@@H]5CC[C@]43C)[C@@H]12,viral replication,"subtypes B, C, AE incl. Gag polymorphisms",concentration not given,antiviral activity,active
Cc1cc(/C=C/C#N)cc(C)c1Nc1ccnc(Nc2ccc(C#N)cc2)n1,"viral replication, MTT","MT-4, IIIB wild type",,EC50,1 ± 0.27 nM
Cc1cc(C#N)cc(C)c1Oc1nc(Nc2ccc(C#N)cc2)nc(N)c1Br,viral replication,wild type,,EC50,1.5 nM
